Results collected from several papers.
Parts stem from different laboratories: compare values within a part only.

Series 1
Target: Interferon regulatory factor 3, full length, phosphomimetic (IRF3, Homo sapiens, UniProt Q14653, residues 1-427, S386D/S396D/S398D/S402D/T404D/S405D)
Chain of UniProt Q14653 (whole entry, unmodified, looked up): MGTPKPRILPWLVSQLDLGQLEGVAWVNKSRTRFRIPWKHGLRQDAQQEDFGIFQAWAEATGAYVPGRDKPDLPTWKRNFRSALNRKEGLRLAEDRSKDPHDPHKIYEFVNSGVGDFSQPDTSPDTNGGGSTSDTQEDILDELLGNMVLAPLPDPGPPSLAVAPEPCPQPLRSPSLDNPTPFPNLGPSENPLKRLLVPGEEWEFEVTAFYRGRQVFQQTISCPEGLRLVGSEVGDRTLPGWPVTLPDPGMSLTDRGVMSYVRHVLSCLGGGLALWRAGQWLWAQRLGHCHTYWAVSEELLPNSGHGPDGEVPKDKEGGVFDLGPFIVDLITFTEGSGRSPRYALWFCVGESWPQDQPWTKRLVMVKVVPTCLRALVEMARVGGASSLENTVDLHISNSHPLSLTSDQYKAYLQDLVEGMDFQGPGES
Technique: protein-binding microarray
Form: double-stranded DNA, one strand shown
Sample: in vitro
Tested at: 2540 nM top
Notes: 60-bp whole probe
Together with: salmon DNA 0.4 mg/ml
Baseline: random background probes
Reading: higher = stronger binding
Constant ends, left off below: GCCTAGCAC … GTCTTGATTCGCTTGACGCTGCTG
| Strand | fitted relative affinity |
| --- | --- |
| GACGGTTTCCTTTTCCTGATGTGCTAG | 10.5 z-score |
| GTCGGTATCGGACTGGGGACGTGCTAG | 2.68 z-score |
| GACGAACTGGGGACTGTAGACGTGCTA | -0.632 z-score |
| TTAGGTTTCGAATTTCGGTTAGTGCTA | 5.39 z-score |
| GACGGTATCGTTATCCTGACGTGCTAG | 2.83 z-score |
| TCACCACCCGCTCTGGCACTGTGCTAG | -0.346 z-score |
| GACGGTTTCGACTTTCGGGAGGTGCTA | 4.02 z-score |
| TTCACTTTAAATTAGACTTAGTGCTAG | 0.487 z-score |

Series 2
Target: RING finger protein unkempt homolog, zinc fingers 1-6, SBP tag (UNK, Homo sapiens, UniProt Q9C0B0, residues 30-357)
Chain of UniProt Q9C0B0 (30-357, looked up): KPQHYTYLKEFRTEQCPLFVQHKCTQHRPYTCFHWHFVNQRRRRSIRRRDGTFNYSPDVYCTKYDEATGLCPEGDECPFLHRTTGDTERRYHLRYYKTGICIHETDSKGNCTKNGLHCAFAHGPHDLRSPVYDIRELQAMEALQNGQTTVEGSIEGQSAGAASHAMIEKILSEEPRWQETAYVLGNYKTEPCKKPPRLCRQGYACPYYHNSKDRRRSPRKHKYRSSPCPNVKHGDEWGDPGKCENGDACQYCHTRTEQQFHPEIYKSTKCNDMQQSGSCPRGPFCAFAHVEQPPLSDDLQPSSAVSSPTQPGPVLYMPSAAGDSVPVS
Technique: RNA Bind-n-Seq
Form: RNA
Sample: in vitro
Tested at: 100 nM
Notes: RNA with constant flanks, vertebrate orthologous sites, ends assumed
Baseline: input RNA pool
Reading: higher = stronger binding
Constant ends, left off below: GGGAGUUCUACAGUCCGACGAUC … CAACAGAGGAUUGAGCAUCA
| Strand | bound/input enrichment [ratio] |
| --- | --- |
| AUCAUAGCAAAAGAGCCAAGCAGUAGCAUUAGUGGUUUUUUUUUUUUGUAAAUGUAAAAUUAGAUCCAGACUUUGUUUCCUUACUCAAUUUUAAAAAUAAAAAAAAUACCUCAGUGCUAU | 0.495 |
| ACCUUUUGUAGGCCAAAAACCUUCCUUCCACUGCUUCUGCCAACUGGAAGCACAGAAAACUAGAAUUUCAUUUAUUUUGUUUAAAAAAAAAAAAAUUGAUUUCUUGUAACAUCCAAUAGG | 0.435 |
| GUCCUGAGUUUUUAAAAGUCCUUAUAUUUUUCUUUUUUCCUUUUUUUGGGGGGGGGUGGGGGAUAUGUAGUAAUAUUAGCAUAAAGAUUUUAAUUUGGGCAACUUUGAUUCCUAAGAGAA | 4.87 |
| GCCUCUGAACCCCAUAUCUUCUGUUUCAUAAUGCAGAAGUGUUCUUUUUAAUUAUAUUAGUGGACUUGUUUUAAUUUUAGAGAGACUUCCAGUACAGAUACUGUGAGCUGACAUGGAAAA | 2.47 |
| CCGCAUUAGCACCCUGCCAGCCCAGCAACCUCUCAGUGCACAGCUUCAAAUAGUAAGGUCUAGCUAGAUUUUUAUUUAAAAUAUGAAAAACUGCUUUUCCCAAGACGUUUUUUAAAGGAA | 0.784 |
| UGGGUUACUCCUAUUAUUAUCAAGUAGCUGGAAUUGUGAAGGUCGGAGUAGUUAGAUCUUUAGCUUUUAUUCCUUUUUUUUGUAUUACUAUCCAUGUGUAUAAAUUAUUGAUCAUGUUGC | 2.68 |
| ACUUGUUUCAUUUUAGGUAUCAUUGCCCAAUGCCCAAGAUCUUUUAUGUUCAACUGACUGUAGGAAAUAAUGAAUUUUUUGGGGAAGGGAAGACUCGACAAGCUGCUCGACAUAAUGCUG | 0.952 |
| CAGCCAACUCCCUUAUCGGCCGGGCUGCUCACAUCGCCGUCCUCGACUCUGAGAUCUUCCUGGAGAAGUUCUUCCUUGUUGCAGGCCUCAAGUUCUUUCAGUAGAACUGUGACAGAUUCG | 0.47 |

Series 3
Target: Max-binding protein MNT, bHLH-zipper, MAX partner unstated (MNT, Homo sapiens, UniProt Q99583, residues 220-300)
Technique: protein-binding microarray
Form: double-stranded DNA, one strand shown
Sample: in vitro
Tested at: not given
Notes: k-mer, scored over probes, only values ≥0.25
Reading: higher = stronger binding
Construct (chain): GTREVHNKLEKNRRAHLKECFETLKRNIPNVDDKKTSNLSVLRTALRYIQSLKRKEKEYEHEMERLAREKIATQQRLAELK
| Strand | E-score |
| --- | --- |
| CACGCGCA | 0.455 |
| GCATGGAC | 0.369 |
| CGTGCTTC | 0.364 |
| CATGCACC | 0.382 |
| AAAGCACA | 0.252 |
| CTCCCCGC | 0.253 |
| CATGTCCA | 0.293 |
| CACCCCGC | 0.283 |

Series 4
Target: Replicase polyprotein 1ab, main protease (rep, Severe acute respiratory syndrome coronavirus 2, UniProt P0DTD1)
Effect on: enzyme activity
Action: inhibitor
Tested at: 20 µM
| SMILES | inhibition [%] |
| --- | --- |
| CCc1ccc(/C=C/C(=O)Nc2ccc(C(C)=O)cc2)o1 | -30.5 |
| CCN(CC)C(=S)S | -13.9 |
| Cc1cc(-c2ccc(/C=C3/SC(Nc4ccc(Cl)c(C(=O)O)c4)=NC3=O)o2)c([N+](=O)[O-])cc1C | 73.3 |

Series 5
Cell line: HEK-293T
Organism: VSV pseudotyped with SARS-CoV-2 spike
Tested at: 10 µM
Time: 16 h
| SMILES | pseudovirus infection [%] |
| --- | --- |
| Clc1cccc(Cl)c1N=C1NCCN1 | 71.6 |
| NCCc1c[nH]cn1 | 91.3 |
| CCCCc1oc2ccccc2c1C(=O)c1cc(I)c(OCCN(CC)CC)c(I)c1 | 52 |

Series 6
Target: Replicase polyprotein 1ab, polymerase (rep, Severe acute respiratory syndrome coronavirus 2, UniProt P0DTD1)
Effect on: enzyme activity
Action: inhibitor
Tested at: 20 µM
| SMILES | inhibition |
| --- | --- |
| COC(=O)Nc1nc2cc([S+]([O-])c3ccccc3)ccc2[nH]1 (stereo not shown) | -0.16% |
| O=C1C2CCN(CC2)C1(CO)CO | 1.86% |
| O=C(O)[C@@H](c1ccc(OCc2ccc3ccccc3n2)cc1)C1CCCC1 | -3.61% |
| NS(=O)(=O)c1ccc2c(c1)C1C=CCC1C(c1ccc(Br)cc1)N2 (stereo not shown) | 2.14% |
| O=C(c1cc(S(=O)(=O)Nc2ccccc2F)c(F)cc1Cl)N1CCN2CCC[C@@H]2C1 | -2.5% |
| O=C(O)c1ccccn1 | 0.02% |
| NNC(=O)CN1C(=O)CN=C(c2ccccc2)c2cc(Br)ccc21 | 3.03% |
| O=C1COc2c(CCNCCN(C(=O)CCNCCc3ccc(Cl)c(Cl)c3)C3CCCCC3)ccc(O)c2N1 | 0.26% |
| CN1CCc2cc3c(cc2C1O)OCO3 (stereo not shown) | 2% |
| CCCCCCc1ccc(O)cc1O | 24.4% |
| CC(C)[C@H](CO)Nc1nc(Nc2ccc(C(=O)O)c(Cl)c2)c2ncn(C(C)C)c2n1 | -4.95% |
| CCOC(=O)c1cncn1[C@H](C)c1ccccc1 | -6.27% |
| CC(=O)c1c(C)c2cnc(Nc3ccc(N4CCNCC4)cn3)nc2n(C2CCCC2)c1=O | 2.66% |
| Cc1[nH]c(/C=C2\C(=O)Nc3ccccc32)c(C)c1CCC(=O)O | 7.94% |
| O=C(O)c1cc(=O)[nH]c(=O)[nH]1 | -5.93% |
| O=C(O)c1cccc(-c2noc(-c3ccccc3F)n2)c1 | -7.89% |
| N#C/C(=C1/SCC(c2ccccc2Cl)S1)n1ccnc1 (stereo not shown) | 3.92% |
| O=c1cccc2n1C[C@@H]1CNC[C@H]2C1 | -0.44% |
| CC(C[N+](C)(C)C)OC(N)=O (stereo not shown) | -0.75% |
| CC(C)CCNc1ncccc1C(=O)N1CCN(Cc2ccccc2)CC1 | -3.46% |
| CN1CCN(C(c2ccccc2)c2ccccc2)CC1 | 1.98% |
| CC(=O)Oc1ccccc1C(=O)Nc1ccccc1 | -3.57% |
| O=Nc1ccc(O)c2ncccc12 | 1.18% |
| S=C(NCCc1ccccn1)Nc1ccc(Br)cn1 | 1.64% |
| Cc1cc(Nc2nc(N[C@@H](C)c3ccc(F)cc3)c(C#N)cc2F)n[nH]1 | -1.72% |

Repeated from above (series 6):
| SMILES | inhibition |
| --- | --- |
| CCCCCCc1ccc(O)cc1O | 24.4% |
| O=C(c1cc(S(=O)(=O)Nc2ccccc2F)c(F)cc1Cl)N1CCN2CCC[C@@H]2C1 | -2.5% |
| NNC(=O)CN1C(=O)CN=C(c2ccccc2)c2cc(Br)ccc21 | 3.03% |
